Measurements gathered from unrelated publications.
Each line is one published result; not all experiments were run side by side. Values joined by “and” are separate records of one study, mostly repeats; a detail may differ. Numbers after ± are the reported error.
Organism: SARS-CoV-2

For Cc1ccc(N2CC3CC(C2)N3C)cc1C(=O)NC1(c2ccc3c4c(cccc24)C(=O)N3C)CC1, the inhibition was 100% (viral replication; Vero C1008, Omicron BA.5; 12.5 µM, 72 h).
CC[C@H](C)[C@H](NC(=O)CNC(=O)[C@H](CO)NC(=O)CNC(=O)[C@H](CSSC[C@H](NC(C)=O)C(=O)NCC(=O)N[C@@H](CO)C(=O)NCC(=O)N[C@H](C(=O)N[C@@H](CO)C(=O)NCC(=O)N[C@H](C(=O)N[C@@H](CC(N)=O)C(=O)N[C@@H](C)C(=O)N[C@@H](CO)C(=O)N[C@H](C(=O)N[C@H](C(=O)N[C@@H](CCC(=O)O)C(=O)N[C@H](C(=O)N[C@@H](CCC(N)=O)C(=O)N[C@@H](CCCCN)C(=O)N[C@@H](CCC(=O)O)C(=O)N[C@H](C(=O)N[C@@H](CCC(=O)O)C(=O)N[C@@H](CCCNC(=N)N)C(=O)N[C@@H](CC(C)C)C(=O)N[C@@H](CC(N)=O)C(=O)N[C@@H](CCCCN)C(=O)N[C@H](C(=O)N[C@@H](C)C(=O)N[C@@H](CCCCN)C(=O)N[C@@H](CC(N)=O)C(=O)N[C@@H](CC(C)C)C(=O)N[C@@H](CC(N)=O)C(=O)N[C@@H](CCC(=O)O)C(=O)N[C@@H](CO)C(=O)N[C@@H](CC(C)C)C(=O)N[C@H](C(=O)N[C@@H](CC(=O)O)C(=O)N[C@@H](CC(C)C)C(=O)N[C@@H](CCC(N)=O)C(=O)N[C@@H](CCC(=O)O)C(N)=O)[C@@H](C)CC)C(C)C)[C@@H](C)CC)[C@@H](C)CC)C(C)C)C(C)C)[C@@H](C)CC)[C@@H](C)CC)NC(C)=O)C(=O)N[C@@H](CO)C(=O)NCC(=O)N[C@H](C(=O)N[C@@H](CC(N)=O)C(=O)N[C@@H](C)C(=O)N[C@@H](CO)C(=O)N[C@H](C(=O)N[C@H](C(=O)N[C@@H](CCC(=O)O)C(=O)N[C@H](C(=O)N[C@@H](CCC(N)=O)C(=O)N[C@@H](CCCCN)C(=O)N[C@@H](CCC(=O)O)C(=O)N[C@H](C(=O)N[C@@H](CCC(=O)O)C(=O)N[C@@H](CCCNC(=N)N)C(=O)N[C@@H](CC(C)C)C(=O)N[C@@H](CC(N)=O)C(=O)N[C@@H](CCCCN)C(=O)N[C@H](C(=O)N[C@@H](C)C(=O)N[C@@H](CCCCN)C(=O)N[C@@H](CC(N)=O)C(=O)N[C@@H](CC(C)C)C(=O)N[C@@H](CC(N)=O)C(=O)N[C@@H](CCC(=O)O)C(=O)N[C@@H](CO)C(=O)N[C@@H](CC(C)C)C(=O)N[C@H](C(=O)N[C@@H](CC(=O)O)C(=O)N[C@@H](CC(C)C)C(=O)N[C@@H](CCC(N)=O)C(=O)N[C@@H](CCC(=O)O)C(N)=O)[C@@H](C)CC)C(C)C)[C@@H](C)CC)[C@@H](C)CC)C(C)C)C(C)C)[C@@H](C)CC gave an IC50 ratio of 1.26 (viral replication; VeroE6/TMPRSS2, ancestral Wuhan; baseline: compound over corresponding monomer).
With CC(C)(C)NC(=O)[C@@H](c1cccnc1)N(C(=O)c1ccco1)c1ccc(C(C)(C)C)cc1 the viral reduction was 0.11% (viral replication; Vero; 1 µM).
For Cc1oc2nc1C(=O)N[C@](C)(C(=O)OC(C)C)c1nc(c(C)o1)C(=O)N[C@](C)(C(=O)OC(C)C)c1nc(c(C)o1)C(=O)N[C@]2(C)C(=O)OC(C)C, the inhibition was 13% (virucidal activity; Vero E6, NRC-03-nhCoV; 2.5 µM).
For NC(Cc1cc(O)c(O)cc1O)C(=O)O (racemic), selectivity index read “inactive” (Huh-7; baseline: CC50 over EC50).
The EC90 of CC(C)C(=O)OC[C@H]1O[C@@](C#N)(n2ccc(N)nc2=O)[C@H](O)[C@@H]1O is reported as 3.2 ± 1.3 µM (viral replication, qRT-PCR of viral RNA; Caco-2, Washington).
The EC75 of COc1cccc2[nH]c(C(=O)N[C@@H](CC(C)C)C(=O)N[C@@H](C[C@@H]3CCNC3=O)C(=O)c3nc4ccccc4s3)cc12 is reported as 4.3 ± 0.58 µM (viral replication, RT-qPCR; VeroE6, WK-521 ancestral).
For CC(C)CC(C(=O)N1CC2(CC1C#N)C(=O)Nc1ccccc12)N(C)C(=O)c1cc2c(F)cc(F)c(F)c2[nH]1 (stereo not shown), the inhibition was 96.3% (viral replication, infectious virus; Vero E6; 0.1111 µM).
With Oc1ccc(Br)cc1-c1nc2cc(C(F)(F)F)ccc2s1 the replicon activity was 0.583 and 0.533 and 0.774 and 0.569 and 0.851 (HiBiT luminescence; HeLa replicon; concentration not given, unit not given; baseline: DMSO).
The selectivity index of O=C(CCN(Cc1ccco1)C(=O)c1csc(Nc2ccccc2)n1)NCc1cccc(C(F)(F)F)c1 is reported as greater than 3 (A549-ACE2; baseline: CC50 over EC50).
Under “SARS-CoV-2 nucleoprotein level”, O=CC(O)C(O)C(O)C(O)COc1cc(O)c2c(=O)c(OCC(O)C(O)C(O)C(O)C=O)c(-c3ccc(O)c(O)c3)oc2c1 (stereo not shown) is recorded as “decreased” (intracellular; concentration not given).
Cc1ccc(N2CC(N3CCC(C)(O)CC3)C2)cc1C(=O)NC1(c2ccc3c4c(cccc24)C(=O)N3C)CC1 gave an inhibition of 100% (viral replication; Vero C1008, wild type; 12.5 µM).
With CCCCCOP(=O)(O)Oc1c2c(c(OP(=O)(O)OCCCCC)c3c1C1CC3c3cc4c(cc31)C1CC4c3ccccc31)C1CC2c2cc3c(cc21)C1CC3c2ccccc21 the IC50 was 6.4 µM (spike pseudoparticle entry; Caco-2).
For Cc1oc2nc1C(=O)N[C@](C)(C(=O)O)c1nc(c(C)o1)C(=O)N[C@](C)(C(=O)O)c1nc(c(C)o1)C(=O)N[C@]2(C)C(=O)O, the inhibition was 65% (viral adsorption; Vero E6, NRC-03-nhCoV; 20 µM).
With Cc1ccc(N2CCN(C)CC2)cc1C(=O)NC1(c2ccc3c4c(cccc24)CC3)CC1 the inhibition was 0% (viral replication; Vero C1008, XBB.1; 0.005716 µM).
C[C@@H]1O[C@@H](n2c3ccccc3c3c4c(c5c6ccccc6[nH]c5c32)CNC4=O)C[C@@H](N)[C@H]1O has an EC50 of 0.12 µM (viral replication, measured: dsRNA; Calu-3, Omicron BA.5).
The selectivity index of O=C(Oc1ccc(CCCCCCCCC(=O)c2c(OC(=O)c3ccccc3)cccc2OC(=O)c2ccccc2)cc1OC(=O)c1ccccc1)c1ccccc1 is reported as greater than 2.8 (Vero E6/TMPRSS2, WK-521 ancestral; baseline: CC50 over EC50).
For Cc1ccc(N2CC(N3CCC(C)(O)CC3)C2)cc1C(=O)NC1(c2ccc3c4c(cccc24)CC3)CC1, the inhibition was 0% (viral replication; Vero C1008, Omicron BA.5; 0.05144 µM).
CCCCCCCOP(=O)(O)Oc1c2c(c(OP(=O)(O)OCCCCCCC)c3c1C1CC3c3cc4c(cc31)C1CC4c3ccccc31)C1CC2c2cc3c(cc21)C1CC3c2ccccc21 has an IC50 of 1 µM (spike pseudoparticle entry; Caco-2).
For Cc1oc2nc1C(=O)N[C@](C)(C(=O)NCCc1ccccc1)c1nc(c(C)o1)C(=O)N[C@](C)(C(=O)NCCc1ccccc1)c1nc(c(C)o1)C(=O)N[C@]2(C)C(=O)NCCc1ccccc1, the inhibition was 0% (virucidal activity; Vero E6, NRC-03-nhCoV; 2.5 µM).
With Cc1ccc(N2CC3CC(C2)N3)cc1C(=O)NC1(c2ccc3c4c(cccc24)C(=O)N3C)CC1 the inhibition was 100% (viral replication; Vero C1008, XBB.1; 12.5 µM).
The selectivity index of CC(C)CCC1=C(O)C(=O)c2ccccc2C1=O is reported as 35 ± 7 (Calu-3 and HepG2; baseline: HepG2 CC50 over antiviral EC50).

For quick reference, copied from above:
For NC(Cc1cc(O)c(O)cc1O)C(=O)O (racemic), selectivity index read “inactive” (Huh-7; baseline: CC50 over EC50).
With CC(C)(C)NC(=O)[C@@H](c1cccnc1)N(C(=O)c1ccco1)c1ccc(C(C)(C)C)cc1 the viral reduction was 0.11% (viral replication; Vero; 1 µM).
CC[C@H](C)[C@H](NC(=O)CNC(=O)[C@H](CO)NC(=O)CNC(=O)[C@H](CSSC[C@H](NC(C)=O)C(=O)NCC(=O)N[C@@H](CO)C(=O)NCC(=O)N[C@H](C(=O)N[C@@H](CO)C(=O)NCC(=O)N[C@H](C(=O)N[C@@H](CC(N)=O)C(=O)N[C@@H](C)C(=O)N[C@@H](CO)C(=O)N[C@H](C(=O)N[C@H](C(=O)N[C@@H](CCC(=O)O)C(=O)N[C@H](C(=O)N[C@@H](CCC(N)=O)C(=O)N[C@@H](CCCCN)C(=O)N[C@@H](CCC(=O)O)C(=O)N[C@H](C(=O)N[C@@H](CCC(=O)O)C(=O)N[C@@H](CCCNC(=N)N)C(=O)N[C@@H](CC(C)C)C(=O)N[C@@H](CC(N)=O)C(=O)N[C@@H](CCCCN)C(=O)N[C@H](C(=O)N[C@@H](C)C(=O)N[C@@H](CCCCN)C(=O)N[C@@H](CC(N)=O)C(=O)N[C@@H](CC(C)C)C(=O)N[C@@H](CC(N)=O)C(=O)N[C@@H](CCC(=O)O)C(=O)N[C@@H](CO)C(=O)N[C@@H](CC(C)C)C(=O)N[C@H](C(=O)N[C@@H](CC(=O)O)C(=O)N[C@@H](CC(C)C)C(=O)N[C@@H](CCC(N)=O)C(=O)N[C@@H](CCC(=O)O)C(N)=O)[C@@H](C)CC)C(C)C)[C@@H](C)CC)[C@@H](C)CC)C(C)C)C(C)C)[C@@H](C)CC)[C@@H](C)CC)NC(C)=O)C(=O)N[C@@H](CO)C(=O)NCC(=O)N[C@H](C(=O)N[C@@H](CC(N)=O)C(=O)N[C@@H](C)C(=O)N[C@@H](CO)C(=O)N[C@H](C(=O)N[C@H](C(=O)N[C@@H](CCC(=O)O)C(=O)N[C@H](C(=O)N[C@@H](CCC(N)=O)C(=O)N[C@@H](CCCCN)C(=O)N[C@@H](CCC(=O)O)C(=O)N[C@H](C(=O)N[C@@H](CCC(=O)O)C(=O)N[C@@H](CCCNC(=N)N)C(=O)N[C@@H](CC(C)C)C(=O)N[C@@H](CC(N)=O)C(=O)N[C@@H](CCCCN)C(=O)N[C@H](C(=O)N[C@@H](C)C(=O)N[C@@H](CCCCN)C(=O)N[C@@H](CC(N)=O)C(=O)N[C@@H](CC(C)C)C(=O)N[C@@H](CC(N)=O)C(=O)N[C@@H](CCC(=O)O)C(=O)N[C@@H](CO)C(=O)N[C@@H](CC(C)C)C(=O)N[C@H](C(=O)N[C@@H](CC(=O)O)C(=O)N[C@@H](CC(C)C)C(=O)N[C@@H](CCC(N)=O)C(=O)N[C@@H](CCC(=O)O)C(N)=O)[C@@H](C)CC)C(C)C)[C@@H](C)CC)[C@@H](C)CC)C(C)C)C(C)C)[C@@H](C)CC gave an IC50 ratio of 1.26 (viral replication; VeroE6/TMPRSS2, ancestral Wuhan; baseline: compound over corresponding monomer).
